Results gathered from unrelated publications.
Numbers after ± are the reported error.

SMILES	system	conditions	quantity	value
C=Cc1cc(O)cc2nc(-c3ccc(O)c([76Br])c3)oc12	female C57BL/6 mouse, spleen	1 h, low dose	tissue uptake	0.13 ± 0.01 %ID/g
N=C(N)NCc1ccc(C(=O)NCCCC[C@H](NC(=O)N[C@@H](CCC(=O)O)C(=O)O)C(=O)O)cc1[131I]	SCID mouse, PC-3 xenografts, kidneys	1 h	tissue uptake	170 %ID/g
CN[C@](C)(C[18F])C(=O)O	SCID mouse U87 xenograft, liver	15 min, post injection	tissue uptake	8.4 ± 1.2 %ID/g
CCCCCCCC(=O)NCCCC[C@H](NC(=O)[C@H](Cc1ccccc1)NC(=O)[C@@H](CCCNC(=N)N)NC(=O)[C@@H](N)Cc1ccc(O)cc1)C(N)=O	CD-1 mouse, male, heart	intravenous, 3 mg/kg, 180 min	tissue concentration	675 ± 72 ng/g
Cn1cc(-c2cccc(CN3CCC4(CC3)COc3c4ccc4c3CN([C@H]3CCC(=O)NC3=O)C4=O)c2)cn1	mouse Crbn I391V, thymus	oral, 10 mg/kg, 6 h	tissue concentration	76 ng/g
N=C(N)NCc1ccc(C(=O)NCCCC[C@H](NC(=O)CCCCCCC(=O)NCCCC[C@H](NC(=O)N[C@@H](CCC(=O)O)C(=O)O)C(=O)O)C(=O)O)cc1[131I]	SCID mouse, PC-3 xenografts, kidneys	1 h	tissue uptake	121 ± 24 %ID/g
C[S]1CC[S]2CC[P](CO)(CO)[99Tc+]12.[C-]#[O+].[C-]#[O+].[C-]#[O+]	female CF-1 mouse, small intestine	intravenous, 1 h	tissue uptake	13.5 %ID/g
N=C(N)NCc1ccc(C(=O)NCCCC[C@H](NC(=O)N[C@@H](CCC(=O)O)C(=O)O)C(=O)O)cc1[211At]	SCID mouse, PC-3 xenografts, stomach	14 h	tissue uptake	2.24 ± 1.08 %ID/g
O=C(O)CC[C@H](NC(=O)O[C@@H](CCCCNC(=O)c1ccc([18F])cc1)C(=O)O)C(=O)O	mouse, PC-3 PIP/flu xenografts, liver	90 min	tissue uptake	11 ± 0.87 %ID/g
COC(=O)C[C@](O)(CCCC(C)(C)OC(C)=O)C(=O)O[C@@H]1C(OC)=C[C@]23CCCN2CCc2cc4c(cc2[C@H]13)OCO4	CD1 mouse, liver	oral, 1 mg/kg, 24 h, below quantification limit 1.00 ng/mL	tissue concentration	not detected

For quick reference, copied from above:
SMILES	system	conditions	quantity	value
N=C(N)NCc1ccc(C(=O)NCCCC[C@H](NC(=O)CCCCCCC(=O)NCCCC[C@H](NC(=O)N[C@@H](CCC(=O)O)C(=O)O)C(=O)O)C(=O)O)cc1[131I]	SCID mouse, PC-3 xenografts, kidneys	1 h	tissue uptake	121 ± 24 %ID/g
